Experimental data pooled from the literature.
Numbered parts are unrelated; each lists some results of a single study. Changes are numbered by the printed parent chain.
Chain of UniProt P07333 (whole entry, looked up): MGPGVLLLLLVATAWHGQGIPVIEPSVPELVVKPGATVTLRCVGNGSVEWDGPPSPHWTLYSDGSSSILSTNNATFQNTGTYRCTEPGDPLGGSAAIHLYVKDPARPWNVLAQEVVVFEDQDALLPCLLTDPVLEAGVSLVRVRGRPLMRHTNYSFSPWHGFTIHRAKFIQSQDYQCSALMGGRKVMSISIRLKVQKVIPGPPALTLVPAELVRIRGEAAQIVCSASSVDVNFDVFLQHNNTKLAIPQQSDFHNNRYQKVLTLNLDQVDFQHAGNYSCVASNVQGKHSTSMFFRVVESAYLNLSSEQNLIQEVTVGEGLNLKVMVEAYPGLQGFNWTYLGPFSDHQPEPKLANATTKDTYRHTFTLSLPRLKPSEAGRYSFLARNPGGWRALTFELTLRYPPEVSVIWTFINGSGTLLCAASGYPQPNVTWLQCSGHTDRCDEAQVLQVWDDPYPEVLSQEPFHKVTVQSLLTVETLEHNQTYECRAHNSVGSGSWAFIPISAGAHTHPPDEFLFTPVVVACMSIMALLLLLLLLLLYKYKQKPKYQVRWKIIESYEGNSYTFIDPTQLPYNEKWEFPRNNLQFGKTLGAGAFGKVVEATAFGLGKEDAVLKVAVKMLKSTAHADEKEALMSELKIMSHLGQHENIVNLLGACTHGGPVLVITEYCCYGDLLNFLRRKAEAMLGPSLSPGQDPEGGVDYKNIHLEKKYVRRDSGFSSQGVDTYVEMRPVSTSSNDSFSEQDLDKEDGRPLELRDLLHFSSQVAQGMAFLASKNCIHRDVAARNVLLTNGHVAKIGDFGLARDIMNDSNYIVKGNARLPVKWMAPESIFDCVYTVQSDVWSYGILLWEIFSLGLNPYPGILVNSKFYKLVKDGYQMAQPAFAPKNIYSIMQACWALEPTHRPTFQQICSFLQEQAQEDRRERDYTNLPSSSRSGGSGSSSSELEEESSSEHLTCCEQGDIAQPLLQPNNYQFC
Chain of UniProt Q5S007 (whole entry, looked up): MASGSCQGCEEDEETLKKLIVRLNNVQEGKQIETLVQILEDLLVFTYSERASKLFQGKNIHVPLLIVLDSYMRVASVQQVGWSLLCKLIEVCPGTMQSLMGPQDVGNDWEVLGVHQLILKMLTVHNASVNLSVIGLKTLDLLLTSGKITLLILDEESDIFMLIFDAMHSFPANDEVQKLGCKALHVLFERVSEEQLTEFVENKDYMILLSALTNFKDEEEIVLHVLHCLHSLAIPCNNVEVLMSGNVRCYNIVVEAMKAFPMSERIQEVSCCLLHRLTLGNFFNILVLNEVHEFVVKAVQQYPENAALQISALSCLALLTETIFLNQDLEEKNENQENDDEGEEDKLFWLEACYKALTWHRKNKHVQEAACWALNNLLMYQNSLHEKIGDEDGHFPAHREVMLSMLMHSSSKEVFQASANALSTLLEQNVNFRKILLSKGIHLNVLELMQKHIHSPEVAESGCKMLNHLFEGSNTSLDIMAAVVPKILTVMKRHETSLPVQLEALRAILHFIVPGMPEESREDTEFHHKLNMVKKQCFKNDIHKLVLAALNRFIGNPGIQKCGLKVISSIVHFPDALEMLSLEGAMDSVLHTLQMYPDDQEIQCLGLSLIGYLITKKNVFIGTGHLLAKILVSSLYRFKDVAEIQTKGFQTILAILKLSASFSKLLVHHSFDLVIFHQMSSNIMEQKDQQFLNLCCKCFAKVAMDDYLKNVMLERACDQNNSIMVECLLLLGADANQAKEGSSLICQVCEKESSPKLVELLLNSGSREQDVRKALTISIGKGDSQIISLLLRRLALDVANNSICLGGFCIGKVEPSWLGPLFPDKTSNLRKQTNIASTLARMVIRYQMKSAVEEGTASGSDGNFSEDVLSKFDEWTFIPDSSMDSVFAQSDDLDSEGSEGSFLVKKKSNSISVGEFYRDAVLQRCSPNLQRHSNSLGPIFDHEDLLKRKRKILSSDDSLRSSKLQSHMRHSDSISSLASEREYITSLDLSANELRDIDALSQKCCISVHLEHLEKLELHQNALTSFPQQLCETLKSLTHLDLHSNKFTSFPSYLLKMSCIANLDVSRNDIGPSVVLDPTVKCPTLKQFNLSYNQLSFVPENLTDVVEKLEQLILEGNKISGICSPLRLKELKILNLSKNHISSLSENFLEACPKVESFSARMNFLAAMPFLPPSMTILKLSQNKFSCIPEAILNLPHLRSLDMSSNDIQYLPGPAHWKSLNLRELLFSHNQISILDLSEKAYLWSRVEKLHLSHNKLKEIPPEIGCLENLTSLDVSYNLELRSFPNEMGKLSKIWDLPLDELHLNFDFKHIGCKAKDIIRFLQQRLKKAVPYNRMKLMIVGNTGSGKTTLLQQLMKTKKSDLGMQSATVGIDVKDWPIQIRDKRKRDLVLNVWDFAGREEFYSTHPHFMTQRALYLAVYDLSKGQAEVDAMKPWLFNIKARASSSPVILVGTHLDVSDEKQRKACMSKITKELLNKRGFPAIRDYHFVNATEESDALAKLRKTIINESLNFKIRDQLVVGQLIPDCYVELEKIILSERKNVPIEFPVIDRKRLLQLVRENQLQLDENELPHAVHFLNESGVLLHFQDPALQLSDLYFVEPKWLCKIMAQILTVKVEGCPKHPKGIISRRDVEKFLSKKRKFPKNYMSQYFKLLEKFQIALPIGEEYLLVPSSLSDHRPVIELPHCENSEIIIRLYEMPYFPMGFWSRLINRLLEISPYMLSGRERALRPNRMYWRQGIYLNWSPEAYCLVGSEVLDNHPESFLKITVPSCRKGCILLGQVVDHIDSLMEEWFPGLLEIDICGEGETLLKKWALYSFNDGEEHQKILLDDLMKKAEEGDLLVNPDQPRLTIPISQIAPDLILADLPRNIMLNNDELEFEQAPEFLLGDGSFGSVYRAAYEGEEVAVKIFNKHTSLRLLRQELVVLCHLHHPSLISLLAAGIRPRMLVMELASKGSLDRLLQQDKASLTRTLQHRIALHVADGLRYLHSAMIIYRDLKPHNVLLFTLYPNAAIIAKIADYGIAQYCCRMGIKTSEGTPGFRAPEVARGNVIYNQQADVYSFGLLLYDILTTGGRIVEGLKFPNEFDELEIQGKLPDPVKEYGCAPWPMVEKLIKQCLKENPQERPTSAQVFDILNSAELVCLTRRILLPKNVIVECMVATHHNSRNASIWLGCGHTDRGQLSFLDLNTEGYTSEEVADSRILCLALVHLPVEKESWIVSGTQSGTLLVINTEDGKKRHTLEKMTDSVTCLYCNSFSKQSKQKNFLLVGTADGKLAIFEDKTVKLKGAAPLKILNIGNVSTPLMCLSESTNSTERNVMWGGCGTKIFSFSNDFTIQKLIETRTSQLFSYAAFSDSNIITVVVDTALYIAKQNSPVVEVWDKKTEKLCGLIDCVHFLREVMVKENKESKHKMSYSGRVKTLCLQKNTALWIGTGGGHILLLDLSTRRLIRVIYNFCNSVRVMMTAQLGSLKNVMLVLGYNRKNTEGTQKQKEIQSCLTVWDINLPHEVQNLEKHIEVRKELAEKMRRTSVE
Chain of UniProt P32298 (whole entry, looked up): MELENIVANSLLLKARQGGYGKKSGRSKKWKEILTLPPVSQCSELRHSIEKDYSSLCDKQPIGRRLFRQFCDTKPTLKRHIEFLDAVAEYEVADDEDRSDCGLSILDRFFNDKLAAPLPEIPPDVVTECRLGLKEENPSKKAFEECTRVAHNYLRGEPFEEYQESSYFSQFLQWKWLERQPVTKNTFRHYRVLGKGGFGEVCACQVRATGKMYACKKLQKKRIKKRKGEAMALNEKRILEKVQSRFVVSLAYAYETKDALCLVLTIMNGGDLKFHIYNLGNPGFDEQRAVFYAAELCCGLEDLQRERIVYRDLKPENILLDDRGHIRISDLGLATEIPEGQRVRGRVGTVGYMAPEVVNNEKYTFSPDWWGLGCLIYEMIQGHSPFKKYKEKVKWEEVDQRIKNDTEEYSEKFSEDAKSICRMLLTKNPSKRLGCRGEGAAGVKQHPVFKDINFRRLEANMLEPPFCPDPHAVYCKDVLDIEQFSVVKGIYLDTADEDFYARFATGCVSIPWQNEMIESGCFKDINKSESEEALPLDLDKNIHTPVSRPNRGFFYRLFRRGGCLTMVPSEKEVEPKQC

Sample 1 — method: aptamer microarray, sandwich; molecule type: DNA with 2'F-ANA; matrix: in vitro; concentration: 200 nM; added: Cy3 exosite-II aptamer, 400 nM; reading: higher = stronger binding; quantity: mean fluorescence intensity; strand: GGTTGGTGTGGTTGG
Target: Prothrombin, mature alpha-thrombin (F2, Homo sapiens, UniProt P00734)
Notes: whole 15-mer aptamer, many near background
2'F-ANA at 1 2 5 6 7 8 12 13 14: 51.5 a.u.
2'F-ANA at 1 2 5 6 7 10 11 12 13 14: 49.5 a.u.
2'F-ANA at 1 2 4 6 7 8 9 11 13 14 15: 52 a.u.
2'F-ANA at 2 7 9 11 12: 621 a.u.
2'F-ANA at 2 3 5 6 7 8 9 12 13 14: 105 a.u.
2'F-ANA at 1 2 4 12 13 14: 55.1 a.u.
2'F-ANA at 1 2 4 5 7 12 13 14: 54.7 a.u.
2'F-ANA at 2 3 6 9 10 12 15: 359 a.u.

Sample 2 — observed: cell-free assay; method: competition with immobilised ligand; concentration: 0.1 µM; quantity: remaining binding
SMILES: Cn1nc(C(=O)NCc2ccc(C(=O)O)cc2)cc1-c1ccc2[nH]ccc2c1
3-phosphoinositide-dependent protein kinase 1 (PDPK1, Homo sapiens, UniProt O15530): 100%
Receptor-type tyrosine-protein kinase FLT3, autoinhibited (FLT3, Homo sapiens, UniProt P36888): 95%
Macrophage colony-stimulating factor 1 receptor (CSF1R, Homo sapiens, UniProt P07333): 100%
LIM domain kinase 1 (LIMK1, Homo sapiens, UniProt P53667): 100%
Myosin light chain kinase 2, skeletal/cardiac muscle (MYLK2, Homo sapiens, UniProt Q9H1R3): 83%
Casein kinase I isoform alpha (CSNK1A1, Homo sapiens, UniProt P48729): 81%
Cyclin-dependent kinase 16 (CDK16, Homo sapiens, UniProt Q00536): 93%
Epidermal growth factor receptor (EGFR, Homo sapiens, UniProt P00533, A750P/del747-749): 92%
Tyrosine-protein kinase ABL1, non-phosphorylated (ABL1, Homo sapiens, UniProt P00519, Q252H): 71%
G protein-coupled receptor kinase 4 (GRK4, Homo sapiens, UniProt P32298): 96%
Leucine-rich repeat serine/threonine-protein kinase 2 (LRRK2, Homo sapiens, UniProt Q5S007): 75%

Sample 3 — method: DHFR PCA, dose-response; matrix: yeast; added: (+)-ABA, dose series; reading: lower = more sensitive; quantity: ABA EC50
Target: ABI1, truncated, D143A, DHFR fusion (Arabidopsis thaliana, UniProt P49597)
Notes: Hill fit, not affinity, not high confidence
Starting sequence: PYL1, truncated, DHFR fusion (Arabidopsis thaliana, UniProt Q8VZS8); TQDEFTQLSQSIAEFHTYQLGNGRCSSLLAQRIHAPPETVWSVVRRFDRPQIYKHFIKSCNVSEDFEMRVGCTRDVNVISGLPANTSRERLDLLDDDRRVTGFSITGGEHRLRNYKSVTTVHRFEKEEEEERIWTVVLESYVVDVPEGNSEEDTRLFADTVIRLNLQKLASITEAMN
A158H: 241 µM
F157R: 4.25 µM
H16C: 617 µM
V40Y: 9.29 µM
E89M: 0.21 µM
Y141K: 11.3 µM
S87Q: 0.914 µM
H16P: 141 µM

Sample 4 — observed: enzyme activity; mode: inhibitor; concentration: 0.5 µM; relative to: control; quantity: remaining activity
Target: MAP/microtubule affinity-regulating kinase 4 (MARK4, Homo sapiens, UniProt Q96L34)
Chain of UniProt Q96L34 (whole entry, looked up): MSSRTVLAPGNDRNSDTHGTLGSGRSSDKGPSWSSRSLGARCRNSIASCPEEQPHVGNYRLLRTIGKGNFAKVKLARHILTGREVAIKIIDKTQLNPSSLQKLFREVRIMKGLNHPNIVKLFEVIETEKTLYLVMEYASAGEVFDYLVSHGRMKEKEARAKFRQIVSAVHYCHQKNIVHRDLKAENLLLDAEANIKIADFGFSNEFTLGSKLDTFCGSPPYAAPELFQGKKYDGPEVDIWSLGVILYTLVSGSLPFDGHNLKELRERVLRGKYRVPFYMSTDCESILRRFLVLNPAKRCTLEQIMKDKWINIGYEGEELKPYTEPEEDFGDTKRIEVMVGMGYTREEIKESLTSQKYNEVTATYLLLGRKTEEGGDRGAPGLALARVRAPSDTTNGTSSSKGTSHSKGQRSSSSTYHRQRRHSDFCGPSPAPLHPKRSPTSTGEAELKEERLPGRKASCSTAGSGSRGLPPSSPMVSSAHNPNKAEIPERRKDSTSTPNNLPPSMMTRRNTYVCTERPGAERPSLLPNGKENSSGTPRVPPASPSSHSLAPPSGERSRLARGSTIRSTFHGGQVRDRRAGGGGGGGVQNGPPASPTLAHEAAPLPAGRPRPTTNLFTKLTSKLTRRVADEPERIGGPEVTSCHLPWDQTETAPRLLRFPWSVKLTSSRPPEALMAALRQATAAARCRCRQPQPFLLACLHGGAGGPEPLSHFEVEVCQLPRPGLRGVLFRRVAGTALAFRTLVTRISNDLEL
O=C1NC(=O)C(c2cn(CCCO)c3ncccc23)=C1c1cnccn1: 93.9%
CCOC(=O)c1c(C)[nH]c(/C=C2\C(=O)Nc3ccccc32)c1C: 99.6%
Nc1[nH]nc2nc3ccccc3nc12: 99.8%
O=c1c2ccccc2[nH]c(=S)n1CCN1CCC(=C(c2ccc(F)cc2)c2ccc(F)cc2)CC1: 102%
CO[C@H]1C[C@@H]2CC[C@@H](C)[C@@](O)(O2)C(=O)C(=O)N2CCCC[C@H]2C(=O)O[C@H]([C@H](C)C[C@@H]2CC[C@@H](O)[C@H](OC)C2)CC(=O)[C@H](C)/C=C(\C)[C@@H](O)[C@@H](OC)C(=O)[C@H](C)C[C@H](C)/C=C/C=C/C=C/1C: 99.1%
CNC(=O)c1cc(Oc2ccc(NC(=O)Nc3ccc(Cl)c(C(F)(F)F)c3)cc2)ccn1: 98.1%
O=C(Nc1cccc(Nc2cc(Nc3cccc(C(F)(F)F)c3)ncn2)c1)C1CC1: 101%
O=C(CCCc1ccc(-c2ccccc2F)cc1)Nc1ccc(O)cc1: 124%
COc1ccc(OC)c2c(=S)c3ccccc3[nH]c12: 95.7%
O=C1NC(=O)C(c2cn(CCCn3ccnc3)c3ccccc23)=C1Nc1ccccc1: 92.6%
COc1ccc(CNC(=O)Nc2ncc([N+](=O)[O-])s2)cc1: 92.2%
Nc1ncnc2n[nH]c(Nc3ccc(F)cc3)c12: 99.4%
COc1cc2nccc(Oc3ccc(NC(=S)NC(=O)c4ccccc4C)cc3)c2cc1OC: 73.3%
O=C(O)c1ccc2c3c1cccc3c(=O)n1c3ccccc3nc21: 88.4%

Some of these lines once more (sample 2):
Casein kinase I isoform alpha (CSNK1A1, Homo sapiens, UniProt P48729): 81%
Cyclin-dependent kinase 16 (CDK16, Homo sapiens, UniProt Q00536): 93%
Epidermal growth factor receptor (EGFR, Homo sapiens, UniProt P00533, A750P/del747-749): 92%
Tyrosine-protein kinase ABL1, non-phosphorylated (ABL1, Homo sapiens, UniProt P00519, Q252H): 71%
G protein-coupled receptor kinase 4 (GRK4, Homo sapiens, UniProt P32298): 96%
